Published values of several laboratories.
Lines come from different studies, so protocols differ. Several values in a cell are separate wells, animals, samples, runs or records. ± gives the spread as reported.

Nc1nc2c(nc([N+](=O)[O-])n2[C@@H]2O[C@H](CO)[C@@H](O)[C@H]2O)c(=O)[nH]1
nucleoside remaining fraction (depurination, RP-HPLC; citrate-phosphate buffer 0.5 mM; 1240 min, pH 7, 37 °C): 0.506

CC[C@H](C)[C@H](NC(=O)[C@H](CO)NC(=O)[C@H](CCCNC(=N)N)NC(C)=O)C(=O)N[C@H]1CSSC[C@@H](C(=O)N[C@H](C(N)=O)[C@@H](C)O)NC(=O)[C@H](CCCNC(=N)N)NC(=O)[C@H](Cc2c[nH]cn2)NC(=O)[C@H](C)NC(=O)CNC(=O)[C@H](Cc2c[nH]c3ccccc23)NC(=O)[C@H](CC(=O)O)NC(=O)[C@H](CCC(N)=O)NC(=O)[C@H](Cc2cccc3ccccc23)NC(=O)[C@H](C(C)C)NC1=O
retention factor (RP-HPLC, C18; 28% acetonitrile isocratic; pH 7.4): 4.007 ± 0.006

COc1ccc2c(c1)CN(C(=O)CCN1CCC(Cc3ccccc3)CC1)CC[S@@+]2[O-]
systolic blood pressure (telemetry; conscious male beagle dogs; intravenous, NG, 24 h): 141 ± 22 mmHg

CCCCc1ccc(C#Cc2ccc(OCC)cc2)cc1
fetal accumulation (rat, fetus; 5000 ng/mL in perfusate, high dose, mixture of 21 LCMs): 0.833 ± 0.753 ng/g

COc1cc2c3c(n(CCCN4CCOCC4)c(=O)c2cc1OC)-c1cc2c(cc1C3=O)OCO2
Vz (beagle dog, female, plasma; intravenous infusion, 646 mg/m^2, 1 h infusion): 720 L/m² and 1130 L/m²

O=C(Nc1nc2cccc(-c3ccc(CN4CCS(=O)(=O)CC4)cc3)n2n1)C1CC1
treatment-emergent adverse events (measured: epigastric discomfort; human rheumatoid arthritis patients; oral, 150 mg once daily, 4 weeks, regardless of relatedness): 0%

CCc1cc(C(=O)NC)c2nccc(N3CCc4c(cc(Cn5ccnc5)cc4-c4cn(C)nc4C(F)(F)F)C3=O)c2c1
brain weight (Sprague Dawley rat; oral, 100 mg/kg twice daily, 7 days): 1.85 ± 0.079 g

c1cc(CN2CCOCC2)cc(Nc2ncc(C3CC3)c(NCCc3c[nH]cn3)n2)c1
effective permeability (PAMPA; PBS; 5 h, pH 7.4): 0.561 ×10⁻⁶ cm/s

CN(CCCNC(=O)c1cccc(C(=O)O)c1)CCCNC(=O)c1cc(NC(=O)c2cc(NC(=O)c3cc(NC(=O)c4nc(NC(=O)[C@H](N)CCNC(=O)c5cc(NC(=O)c6cc(NC(=O)c7cc(NC(=O)c8nccn8C)cn7C)cn6C)cn5C)cn4C)cn3C)cn2C)cn1C
critical aggregation concentration (dynamic light scattering; 0.1% DMSO in PBS; 25 °C): 4 µM

O=C(N[C@H](Cc1c[nH]c2ccccc12)C(=O)Nc1ccncc1)c1ccc(N2CCN(c3ccc(F)cc3F)CC2)cc1F
concentration (Swiss Webster mouse, female, brain; oral, 50 mg/kg, 2 h, 20% Kolliphor vehicle): 1350 nM

Cc1cc(C)c(CNC(=O)c2cc(Cl)c3c(c2C)O[C@@](C)([C@H]2CC[C@H](N(C)C)CC2)O3)c(=O)[nH]1
serious acute respiratory failure (human relapsed/refractory NHL; oral, 200 mg once daily, onset day 1 to 14): 0%

CCO[C@H]1CCN(Cc2c(OC)cc(C)c3[nH]ccc23)[C@H](c2ccc(C(=O)O)cc2)C1
incidence of haematuria (PNH patients, active haemolysis; oral, 50 mg, 4 weeks, treatment): 0%

O=C(O)CCC(=O)O.[2H]C([2H])([2H])Oc1cc(C)c2[nH]ccc2c1CN1CC[C@@H](C2CC2)C[C@H]1c1ccc(C(=O)O)cc1
TEAE elevated monocyte (healthy Chinese subjects; 100 mg twice daily, multiple ascending dose): 0%

CN(C(=O)n1cnc(-c2cccnc2)c1)C1CCCCC1
concentration (Wistar rat, hippocampus; oral, 10 mg/kg of BIA 10-2474, 1 h, single dose): 86.5 ± 15.3 ng/g

Cc1cc([C@H]2C[C@H]3[C@@H](CF)SC(N)=N[C@@]3(c3ccc(F)cc3F)CO2)on1
brain concentration (male 129/SVE wild-type mouse, brain; subcutaneous, 100 mg/kg, 3 h): 3200 nM

C=CCN1CC(=O)N2[C@@H](Cc3ccc(O)cc3F)C(=O)N(Cc3cccc(N4CC(N5CCN(CC)CC5)C4)n3)C[C@@H]2N1C(=O)NCc1ccccc1
treatment-related adverse events (measured: decreased appetite; human advanced solid tumours; concentration not given, dose escalation grade ≥3): 5.6%

C=CC(=O)NC1CCN(c2ncc3ncnc(Nc4ccc(Oc5ccc6c(c5)ncn6C)c(C)c4)c3n2)CC1
AUC(0-24) (measured: total radioactivity; healthy male volunteers, whole blood; oral solution, 60 mg, 14C-labelled, geometric mean): 11 µM·h

Some of these lines once more:
Nc1nc2c(nc([N+](=O)[O-])n2[C@@H]2O[C@H](CO)[C@@H](O)[C@H]2O)c(=O)[nH]1
nucleoside remaining fraction (depurination, RP-HPLC; citrate-phosphate buffer 0.5 mM; 1240 min, pH 7, 37 °C): 0.506

CC[C@H](C)[C@H](NC(=O)[C@H](CO)NC(=O)[C@H](CCCNC(=N)N)NC(C)=O)C(=O)N[C@H]1CSSC[C@@H](C(=O)N[C@H](C(N)=O)[C@@H](C)O)NC(=O)[C@H](CCCNC(=N)N)NC(=O)[C@H](Cc2c[nH]cn2)NC(=O)[C@H](C)NC(=O)CNC(=O)[C@H](Cc2c[nH]c3ccccc23)NC(=O)[C@H](CC(=O)O)NC(=O)[C@H](CCC(N)=O)NC(=O)[C@H](Cc2cccc3ccccc23)NC(=O)[C@H](C(C)C)NC1=O
retention factor (RP-HPLC, C18; 28% acetonitrile isocratic; pH 7.4): 4.007 ± 0.006
